Results of several laboratories.
Numbered parts are unrelated; each lists some results of a single study.
Sequence of UniProt P37173 (whole entry, looked up): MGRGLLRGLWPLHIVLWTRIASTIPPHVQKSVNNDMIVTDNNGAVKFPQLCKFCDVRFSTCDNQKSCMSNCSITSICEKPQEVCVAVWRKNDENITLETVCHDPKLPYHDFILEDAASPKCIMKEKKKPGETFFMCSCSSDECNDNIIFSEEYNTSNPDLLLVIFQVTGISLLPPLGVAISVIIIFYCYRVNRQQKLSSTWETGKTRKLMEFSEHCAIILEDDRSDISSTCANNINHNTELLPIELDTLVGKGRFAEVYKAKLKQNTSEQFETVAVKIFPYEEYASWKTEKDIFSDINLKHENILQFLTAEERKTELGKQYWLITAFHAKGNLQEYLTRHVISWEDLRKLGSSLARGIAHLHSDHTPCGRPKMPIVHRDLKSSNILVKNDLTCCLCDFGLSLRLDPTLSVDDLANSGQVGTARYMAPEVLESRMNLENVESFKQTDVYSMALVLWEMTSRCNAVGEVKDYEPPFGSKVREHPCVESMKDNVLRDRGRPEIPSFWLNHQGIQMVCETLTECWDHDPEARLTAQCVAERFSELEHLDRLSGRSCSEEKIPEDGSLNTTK
Sequence of UniProt P00519 (whole entry, unmodified, looked up): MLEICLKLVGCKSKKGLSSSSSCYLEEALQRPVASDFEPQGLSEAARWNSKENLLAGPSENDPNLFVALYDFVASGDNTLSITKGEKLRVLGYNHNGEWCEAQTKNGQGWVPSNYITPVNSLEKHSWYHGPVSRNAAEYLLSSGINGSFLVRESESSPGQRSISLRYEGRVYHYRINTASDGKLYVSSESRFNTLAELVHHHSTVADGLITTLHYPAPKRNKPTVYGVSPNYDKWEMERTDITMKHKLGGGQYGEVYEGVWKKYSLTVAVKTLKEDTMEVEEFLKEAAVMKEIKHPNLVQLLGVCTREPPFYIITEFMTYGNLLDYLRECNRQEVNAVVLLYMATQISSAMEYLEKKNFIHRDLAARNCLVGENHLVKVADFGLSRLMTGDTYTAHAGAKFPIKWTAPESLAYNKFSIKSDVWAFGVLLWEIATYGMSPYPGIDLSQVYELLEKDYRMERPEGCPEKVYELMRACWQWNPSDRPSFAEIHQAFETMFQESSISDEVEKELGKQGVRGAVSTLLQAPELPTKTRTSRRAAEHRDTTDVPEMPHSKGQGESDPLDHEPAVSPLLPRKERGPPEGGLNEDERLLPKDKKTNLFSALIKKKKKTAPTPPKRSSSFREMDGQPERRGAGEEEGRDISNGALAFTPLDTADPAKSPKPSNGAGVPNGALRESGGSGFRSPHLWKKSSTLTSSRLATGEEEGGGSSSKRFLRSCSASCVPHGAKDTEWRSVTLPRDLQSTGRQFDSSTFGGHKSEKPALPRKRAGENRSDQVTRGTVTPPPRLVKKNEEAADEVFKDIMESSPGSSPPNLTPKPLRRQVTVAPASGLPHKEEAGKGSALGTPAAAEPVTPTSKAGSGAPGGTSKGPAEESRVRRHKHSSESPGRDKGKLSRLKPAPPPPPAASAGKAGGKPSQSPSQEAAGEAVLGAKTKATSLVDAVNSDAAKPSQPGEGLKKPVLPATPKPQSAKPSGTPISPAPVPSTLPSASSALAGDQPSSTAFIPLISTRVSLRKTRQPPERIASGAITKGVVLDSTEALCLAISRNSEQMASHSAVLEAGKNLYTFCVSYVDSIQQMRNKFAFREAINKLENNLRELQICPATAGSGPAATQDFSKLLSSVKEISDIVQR
Sequence of UniProt P35626 (whole entry, looked up): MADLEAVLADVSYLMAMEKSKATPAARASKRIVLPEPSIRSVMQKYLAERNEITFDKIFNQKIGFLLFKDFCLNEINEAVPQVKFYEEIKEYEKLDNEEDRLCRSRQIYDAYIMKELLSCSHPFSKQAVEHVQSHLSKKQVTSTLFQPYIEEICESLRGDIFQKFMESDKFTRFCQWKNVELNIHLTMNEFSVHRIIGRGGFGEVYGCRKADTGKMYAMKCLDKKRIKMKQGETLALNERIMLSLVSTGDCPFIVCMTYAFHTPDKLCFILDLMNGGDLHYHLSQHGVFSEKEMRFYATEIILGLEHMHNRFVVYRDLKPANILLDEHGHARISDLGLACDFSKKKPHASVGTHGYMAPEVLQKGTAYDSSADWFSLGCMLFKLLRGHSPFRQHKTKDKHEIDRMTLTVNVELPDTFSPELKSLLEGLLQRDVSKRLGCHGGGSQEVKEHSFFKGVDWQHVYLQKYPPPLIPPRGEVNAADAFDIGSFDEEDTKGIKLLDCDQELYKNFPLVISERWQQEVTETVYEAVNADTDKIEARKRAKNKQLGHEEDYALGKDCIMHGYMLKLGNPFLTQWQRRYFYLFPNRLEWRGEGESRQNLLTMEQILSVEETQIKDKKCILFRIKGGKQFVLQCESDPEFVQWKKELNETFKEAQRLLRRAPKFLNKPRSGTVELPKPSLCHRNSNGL
Sequence of UniProt Q14164 (whole entry, looked up): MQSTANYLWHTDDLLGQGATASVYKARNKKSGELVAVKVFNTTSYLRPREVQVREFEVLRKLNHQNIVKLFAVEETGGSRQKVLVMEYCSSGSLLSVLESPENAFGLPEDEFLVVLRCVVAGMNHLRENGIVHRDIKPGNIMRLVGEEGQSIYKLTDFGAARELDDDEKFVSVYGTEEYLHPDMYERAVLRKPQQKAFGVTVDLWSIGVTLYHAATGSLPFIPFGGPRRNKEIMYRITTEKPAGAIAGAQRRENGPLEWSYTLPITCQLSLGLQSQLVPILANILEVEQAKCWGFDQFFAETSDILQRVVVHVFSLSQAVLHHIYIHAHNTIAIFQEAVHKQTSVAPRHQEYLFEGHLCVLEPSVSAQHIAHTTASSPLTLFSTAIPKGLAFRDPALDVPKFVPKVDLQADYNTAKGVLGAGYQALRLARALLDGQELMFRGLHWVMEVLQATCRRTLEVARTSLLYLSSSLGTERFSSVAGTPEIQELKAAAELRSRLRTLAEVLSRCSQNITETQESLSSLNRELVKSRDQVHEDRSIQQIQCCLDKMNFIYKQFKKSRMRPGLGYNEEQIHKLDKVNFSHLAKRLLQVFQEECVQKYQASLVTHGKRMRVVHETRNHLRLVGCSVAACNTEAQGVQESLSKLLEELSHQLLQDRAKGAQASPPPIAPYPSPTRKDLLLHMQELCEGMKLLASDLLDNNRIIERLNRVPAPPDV
Sequence of UniProt P36897 (whole entry, looked up): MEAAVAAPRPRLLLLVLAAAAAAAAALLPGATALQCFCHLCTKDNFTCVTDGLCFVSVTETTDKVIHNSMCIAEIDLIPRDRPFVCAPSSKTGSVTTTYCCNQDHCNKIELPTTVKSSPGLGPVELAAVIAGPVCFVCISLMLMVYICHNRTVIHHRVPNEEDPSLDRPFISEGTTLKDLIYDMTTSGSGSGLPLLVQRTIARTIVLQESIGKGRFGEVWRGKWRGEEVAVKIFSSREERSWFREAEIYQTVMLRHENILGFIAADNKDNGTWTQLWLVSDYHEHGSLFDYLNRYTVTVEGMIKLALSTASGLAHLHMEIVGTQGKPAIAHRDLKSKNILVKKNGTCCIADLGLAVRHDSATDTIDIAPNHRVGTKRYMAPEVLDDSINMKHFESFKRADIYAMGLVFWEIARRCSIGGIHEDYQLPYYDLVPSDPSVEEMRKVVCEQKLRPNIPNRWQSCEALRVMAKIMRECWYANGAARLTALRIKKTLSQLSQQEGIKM
Sequence of UniProt O75582 (whole entry, looked up): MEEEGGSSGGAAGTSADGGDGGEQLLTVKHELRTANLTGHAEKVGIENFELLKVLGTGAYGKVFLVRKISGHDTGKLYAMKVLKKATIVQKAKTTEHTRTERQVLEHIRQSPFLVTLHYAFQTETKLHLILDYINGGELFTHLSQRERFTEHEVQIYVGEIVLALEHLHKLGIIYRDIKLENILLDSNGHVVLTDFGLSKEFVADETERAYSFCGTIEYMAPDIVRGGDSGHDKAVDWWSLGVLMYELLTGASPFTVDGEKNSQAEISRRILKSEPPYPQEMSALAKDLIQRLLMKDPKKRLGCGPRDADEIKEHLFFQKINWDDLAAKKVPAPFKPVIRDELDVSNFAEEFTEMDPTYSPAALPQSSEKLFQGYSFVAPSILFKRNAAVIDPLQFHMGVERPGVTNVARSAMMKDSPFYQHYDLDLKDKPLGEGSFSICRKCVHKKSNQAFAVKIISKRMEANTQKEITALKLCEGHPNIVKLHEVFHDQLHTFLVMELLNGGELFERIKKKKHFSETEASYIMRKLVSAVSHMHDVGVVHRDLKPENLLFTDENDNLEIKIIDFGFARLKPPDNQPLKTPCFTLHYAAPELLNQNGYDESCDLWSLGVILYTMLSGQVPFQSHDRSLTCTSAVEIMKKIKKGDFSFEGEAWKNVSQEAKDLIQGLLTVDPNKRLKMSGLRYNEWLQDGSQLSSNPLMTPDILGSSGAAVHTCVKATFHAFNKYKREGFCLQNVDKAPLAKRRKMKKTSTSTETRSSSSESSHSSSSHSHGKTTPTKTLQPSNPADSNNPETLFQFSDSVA

Study 1 — Compound: CCN(c1nc(N)c(C(=O)N=C(N)N)nc1Cl)C(C)C; read-out: β-arrestin recruitment; mode: agonist; method: PRESTO-Tango; concentration: 10 µM; reference: untreated
target	fold over basal
Relaxin receptor 1 (RXFP1, Homo sapiens, UniProt Q9HBX9)	1.17
Adhesion G protein-coupled receptor D2 (ADGRD2, Homo sapiens, UniProt Q7Z7M1)	0.71
PROKR1 (Homo sapiens, UniProt Q8TCW9)	1.02
CRHR2 (Homo sapiens, UniProt Q13324)	0.91
G-protein coupled receptor 22 (GPR22, Homo sapiens, UniProt Q99680)	1.1
Probable G-protein coupled receptor 45 (GPR45, Homo sapiens, UniProt Q9Y5Y3)	0.99
Mas-related G-protein coupled receptor member F (MRGPRF, Homo sapiens, UniProt Q96AM1)	1.11
CASR (Homo sapiens, UniProt P41180)	0.79
NPBWR2 (Homo sapiens, UniProt P48146)	1.12
ADRB1 (Homo sapiens, UniProt P08588)	1.38

Study 2 — method: competition with immobilised ligand; concentration: 1 µM
SMILES: COc1cc(-c2cn(C3CCc4ccccc4N(CC(F)(F)F)C3=O)nn2)ccc1-n1ccc(C)n1 (centres unmarked)
target	read-out	remaining binding [%]
TIE1 (Homo sapiens, UniProt P35590)	cell-free assay	100
PRKCH (Homo sapiens, UniProt P24723)	cell-free assay	73
MAST1 (Homo sapiens, UniProt Q9Y2H9)	cell-free assay	100
PRKAA2 (Homo sapiens, UniProt P54646)	cell-free assay	71
ROS1 (Homo sapiens, UniProt P08922)	cell-free assay	100
TLK1 (Homo sapiens, UniProt Q9UKI8)	cell-free assay	84
FGFR3 (Homo sapiens, UniProt P22607, G697C)	cell-free assay	90
Non-receptor tyrosine-protein kinase TYK2, JH2 (TYK2, Homo sapiens, UniProt P29597)	cell-free assay	100
TGFBR2 (Homo sapiens, UniProt P37173)	cell-free assay	100
PRKD1 (Homo sapiens, UniProt Q15139)	cell-free assay	100
TSSK3 (Homo sapiens, UniProt Q96PN8)	cell-free assay	100
PHKG1 (Homo sapiens, UniProt Q16816)	cell-free assay	80
Ribosomal protein S6 kinase alpha-5, N-terminal kinase domain (RPS6KA5, Homo sapiens, UniProt O75582)	cell-free assay	74
Tyrosine-protein kinase JAK1, JH1 (JAK1, Homo sapiens, UniProt P23458)	cell-free assay	80
RIOK2 (Homo sapiens, UniProt Q9BVS4)	cell-free assay	96
NEK1 (Homo sapiens, UniProt Q96PY6)	cell-free assay	100
EPHA6 (Homo sapiens, UniProt Q9UF33)	cell-free assay	98
Tyrosine-protein kinase ABL1, phosphorylated (ABL1, Homo sapiens, UniProt P00519, F317L)	cell-free assay	57
CASK (Homo sapiens, UniProt O14936)	cell-free assay	80
Tyrosine-protein kinase ABL1, phosphorylated (ABL1, Homo sapiens, UniProt P00519, E255K)	binding	96
PDPK1 (Homo sapiens, UniProt O15530)	cell-free assay	100
CAMKK1 (Homo sapiens, UniProt Q8N5S9)	cell-free assay	100
AKT3 (Homo sapiens, UniProt Q9Y243)	cell-free assay	89
FYN (Homo sapiens, UniProt P06241)	cell-free assay	94
GRK3 (Homo sapiens, UniProt P35626)	cell-free assay	100

Study 3 — host: mouse; sample: microsomes or S9; concentration: 2 µM; time: 0.5 h
Compound	remaining compound [%]
CC(=O)c1ccc(NC(=O)Cn2cnc3c(nnn3-c3ccc(C)cc3)c2=O)cc1	81.3
CCCc1ncncc1C(=O)N1CC[C@@](O)(c2ccccc2)[C@H]2CCCC[C@@H]21	1.1
Cc1cccc(Cn2c3cc(=O)n(CCC4C=Nc5ccccc54)c(C)c3c(=O)n2-c2ccccc2)c1 (centres unmarked)	7.02
Cc1cc(C)cc(C(O)CN(C)Cc2cc(Cl)cn2C)c1 (centres unmarked)	2.26
COCCn1cc2c3c(cccc31)CN(C(=O)Nc1ccccc1C(F)(F)F)CC2	5.58
C[C@@H](c1ccccc1)N1C(=O)OC[C@H]1CN1CCCC1CO (some centres unmarked)	36.5
CCc1cc2c(NCCO)nc(-c3ccccc3)nc2s1	2.22
COc1ccccc1NC(=O)c1cc2c(OC)cccc2[nH]1	5.46

Study 4 — read-out: enzyme activity; mode: inhibitor; concentration: 0.5 µM; reference: control
SMILES: O=C1Cc2c([nH]c3ccc([N+](=O)[O-])cc23)-c2ccccc2N1
target	remaining activity
STK10 (Homo sapiens, UniProt O94804)	80.4%
DAPK2 (Homo sapiens, UniProt Q9UIK4)	97.2%
Protein kinase C beta type, isoform beta-I (PRKCB, Homo sapiens, UniProt P05771)	105%
OXSR1 (Homo sapiens, UniProt O95747)	97%
Cyclin-dependent kinase 5, with p25 (CDK5, Homo sapiens, UniProt Q00535)	10.5%
STK11 (Homo sapiens, UniProt Q15831)	90.2%
NEK2 (Homo sapiens, UniProt P51955)	92.4%
PRKACA (Homo sapiens, UniProt P17612)	87.4%
MAPK9 (Homo sapiens, UniProt P45984)	97.2%
CHEK2 (Homo sapiens, UniProt O96017)	7.9%
cGMP-dependent protein kinase 1, isoform beta (PRKG1, Homo sapiens, UniProt Q13976)	96.8%
CAMK2D (Homo sapiens, UniProt Q13557)	79.3%
PRKCA (Homo sapiens, UniProt P17252)	59.9%
TGFBR2 (Homo sapiens, UniProt P37173)	19.4%
STK39 (Homo sapiens, UniProt Q9UEW8)	77.5%
Tyrosine-protein kinase Lyn, isoform B (LYN, Homo sapiens, UniProt P07948)	89.3%
TGFBR1 (Homo sapiens, UniProt P36897)	103%
IKBKE (Homo sapiens, UniProt Q14164)	93.4%
GRK3 (Homo sapiens, UniProt P35626)	88.9%
DAPK1 (Homo sapiens, UniProt P53355)	104%
IKBKB (Homo sapiens, UniProt O14920)	102%
MAP3K3 (Homo sapiens, UniProt Q99759)	100%

Excerpt of the above (study 4):
target	remaining activity
IKBKE (Homo sapiens, UniProt Q14164)	93.4%
STK39 (Homo sapiens, UniProt Q9UEW8)	77.5%
cGMP-dependent protein kinase 1, isoform beta (PRKG1, Homo sapiens, UniProt Q13976)	96.8%
Protein kinase C beta type, isoform beta-I (PRKCB, Homo sapiens, UniProt P05771)	105%
GRK3 (Homo sapiens, UniProt P35626)	88.9%
PRKCA (Homo sapiens, UniProt P17252)	59.9%
CAMK2D (Homo sapiens, UniProt Q13557)	79.3%
